# Measured values pooled from the literature.
# Each numbered part is a random draw from the data of one study; scales do not carry over between parts.
# UniProt Q08881, sequence (whole entry, looked up): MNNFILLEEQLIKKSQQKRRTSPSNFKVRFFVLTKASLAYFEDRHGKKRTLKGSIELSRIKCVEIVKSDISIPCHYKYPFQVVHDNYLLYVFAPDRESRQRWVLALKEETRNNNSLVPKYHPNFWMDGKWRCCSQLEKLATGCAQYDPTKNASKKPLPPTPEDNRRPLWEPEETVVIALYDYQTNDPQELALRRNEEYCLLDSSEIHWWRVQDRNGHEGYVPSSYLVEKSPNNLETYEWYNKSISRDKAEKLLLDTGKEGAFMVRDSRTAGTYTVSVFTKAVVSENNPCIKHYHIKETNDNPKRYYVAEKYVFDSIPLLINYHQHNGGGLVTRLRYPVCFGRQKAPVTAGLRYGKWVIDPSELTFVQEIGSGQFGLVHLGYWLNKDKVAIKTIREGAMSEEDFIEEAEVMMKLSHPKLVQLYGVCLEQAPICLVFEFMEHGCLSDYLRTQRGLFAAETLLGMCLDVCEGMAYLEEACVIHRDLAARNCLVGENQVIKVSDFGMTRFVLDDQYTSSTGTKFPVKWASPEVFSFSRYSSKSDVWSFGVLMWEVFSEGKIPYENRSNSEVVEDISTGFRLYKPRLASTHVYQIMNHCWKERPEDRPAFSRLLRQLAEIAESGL
# UniProt Q86UX6, sequence (whole entry, looked up): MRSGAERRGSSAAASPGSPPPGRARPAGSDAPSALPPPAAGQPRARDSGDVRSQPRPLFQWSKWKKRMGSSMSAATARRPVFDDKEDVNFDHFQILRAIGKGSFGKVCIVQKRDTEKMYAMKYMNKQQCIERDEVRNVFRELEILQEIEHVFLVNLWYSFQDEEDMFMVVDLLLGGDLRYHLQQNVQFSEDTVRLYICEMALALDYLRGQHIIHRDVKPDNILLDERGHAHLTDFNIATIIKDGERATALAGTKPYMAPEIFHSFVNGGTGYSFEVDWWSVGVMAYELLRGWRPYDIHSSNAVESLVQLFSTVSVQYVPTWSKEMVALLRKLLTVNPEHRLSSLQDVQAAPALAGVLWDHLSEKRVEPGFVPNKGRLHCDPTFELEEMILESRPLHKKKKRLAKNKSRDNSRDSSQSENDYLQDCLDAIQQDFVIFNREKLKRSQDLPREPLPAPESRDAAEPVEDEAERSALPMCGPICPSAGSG
# UniProt Q96D53, sequence (whole entry, looked up): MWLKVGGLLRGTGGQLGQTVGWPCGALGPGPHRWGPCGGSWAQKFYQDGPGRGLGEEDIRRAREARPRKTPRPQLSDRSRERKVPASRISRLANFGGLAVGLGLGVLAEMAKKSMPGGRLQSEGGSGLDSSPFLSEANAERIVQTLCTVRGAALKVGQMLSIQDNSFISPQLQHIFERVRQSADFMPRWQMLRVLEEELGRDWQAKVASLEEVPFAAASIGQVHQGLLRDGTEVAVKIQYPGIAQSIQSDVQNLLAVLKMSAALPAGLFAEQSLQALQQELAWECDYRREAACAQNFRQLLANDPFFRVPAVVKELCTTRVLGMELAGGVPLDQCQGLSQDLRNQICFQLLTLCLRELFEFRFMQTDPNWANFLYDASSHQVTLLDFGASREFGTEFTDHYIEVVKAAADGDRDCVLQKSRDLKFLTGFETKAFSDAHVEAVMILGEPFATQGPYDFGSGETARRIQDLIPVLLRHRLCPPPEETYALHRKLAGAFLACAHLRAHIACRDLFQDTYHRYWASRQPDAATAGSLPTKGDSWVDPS
# UniProt Q5VT25, sequence (whole entry, looked up): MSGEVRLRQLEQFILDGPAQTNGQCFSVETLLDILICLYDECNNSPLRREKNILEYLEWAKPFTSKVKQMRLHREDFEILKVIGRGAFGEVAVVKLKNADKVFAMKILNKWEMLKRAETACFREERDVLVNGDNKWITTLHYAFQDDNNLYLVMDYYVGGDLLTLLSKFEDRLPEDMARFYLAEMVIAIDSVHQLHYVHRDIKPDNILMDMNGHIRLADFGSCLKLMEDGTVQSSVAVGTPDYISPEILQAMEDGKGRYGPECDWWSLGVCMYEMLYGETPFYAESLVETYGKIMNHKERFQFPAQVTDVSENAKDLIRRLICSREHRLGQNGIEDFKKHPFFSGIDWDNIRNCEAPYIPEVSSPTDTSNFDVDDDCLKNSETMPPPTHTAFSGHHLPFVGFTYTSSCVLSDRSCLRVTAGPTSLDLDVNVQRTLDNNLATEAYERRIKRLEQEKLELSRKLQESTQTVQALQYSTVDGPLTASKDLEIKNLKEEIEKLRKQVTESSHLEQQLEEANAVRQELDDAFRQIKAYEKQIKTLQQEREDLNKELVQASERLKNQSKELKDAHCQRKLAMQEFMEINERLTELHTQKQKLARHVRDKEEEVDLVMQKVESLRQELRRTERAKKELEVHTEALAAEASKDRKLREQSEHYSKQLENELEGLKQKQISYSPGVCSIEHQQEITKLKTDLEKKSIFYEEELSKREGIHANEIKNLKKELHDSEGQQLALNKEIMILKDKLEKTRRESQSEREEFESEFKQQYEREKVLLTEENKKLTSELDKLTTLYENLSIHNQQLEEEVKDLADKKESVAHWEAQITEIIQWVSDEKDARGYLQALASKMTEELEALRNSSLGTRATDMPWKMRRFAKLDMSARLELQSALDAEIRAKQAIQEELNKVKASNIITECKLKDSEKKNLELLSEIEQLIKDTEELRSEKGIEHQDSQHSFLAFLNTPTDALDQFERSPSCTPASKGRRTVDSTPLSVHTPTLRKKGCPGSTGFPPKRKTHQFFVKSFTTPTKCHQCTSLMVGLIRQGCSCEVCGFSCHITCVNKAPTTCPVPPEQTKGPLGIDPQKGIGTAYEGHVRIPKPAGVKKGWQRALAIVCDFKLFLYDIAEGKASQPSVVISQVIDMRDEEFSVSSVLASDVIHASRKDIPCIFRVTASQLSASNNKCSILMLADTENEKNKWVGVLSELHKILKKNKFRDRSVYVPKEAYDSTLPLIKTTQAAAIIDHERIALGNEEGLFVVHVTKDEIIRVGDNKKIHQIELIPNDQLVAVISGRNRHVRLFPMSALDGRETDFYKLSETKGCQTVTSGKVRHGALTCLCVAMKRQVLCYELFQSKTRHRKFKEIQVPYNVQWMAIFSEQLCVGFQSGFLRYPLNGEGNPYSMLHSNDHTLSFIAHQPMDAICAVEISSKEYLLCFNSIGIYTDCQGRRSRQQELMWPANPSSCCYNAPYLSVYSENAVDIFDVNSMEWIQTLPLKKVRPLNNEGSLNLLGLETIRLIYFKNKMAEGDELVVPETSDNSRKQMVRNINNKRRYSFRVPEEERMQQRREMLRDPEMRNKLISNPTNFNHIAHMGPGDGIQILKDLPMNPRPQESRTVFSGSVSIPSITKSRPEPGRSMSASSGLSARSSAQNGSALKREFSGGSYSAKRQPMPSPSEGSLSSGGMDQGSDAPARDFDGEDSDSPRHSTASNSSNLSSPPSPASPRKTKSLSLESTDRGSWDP
# UniProt Q86Z02, sequence (whole entry, looked up): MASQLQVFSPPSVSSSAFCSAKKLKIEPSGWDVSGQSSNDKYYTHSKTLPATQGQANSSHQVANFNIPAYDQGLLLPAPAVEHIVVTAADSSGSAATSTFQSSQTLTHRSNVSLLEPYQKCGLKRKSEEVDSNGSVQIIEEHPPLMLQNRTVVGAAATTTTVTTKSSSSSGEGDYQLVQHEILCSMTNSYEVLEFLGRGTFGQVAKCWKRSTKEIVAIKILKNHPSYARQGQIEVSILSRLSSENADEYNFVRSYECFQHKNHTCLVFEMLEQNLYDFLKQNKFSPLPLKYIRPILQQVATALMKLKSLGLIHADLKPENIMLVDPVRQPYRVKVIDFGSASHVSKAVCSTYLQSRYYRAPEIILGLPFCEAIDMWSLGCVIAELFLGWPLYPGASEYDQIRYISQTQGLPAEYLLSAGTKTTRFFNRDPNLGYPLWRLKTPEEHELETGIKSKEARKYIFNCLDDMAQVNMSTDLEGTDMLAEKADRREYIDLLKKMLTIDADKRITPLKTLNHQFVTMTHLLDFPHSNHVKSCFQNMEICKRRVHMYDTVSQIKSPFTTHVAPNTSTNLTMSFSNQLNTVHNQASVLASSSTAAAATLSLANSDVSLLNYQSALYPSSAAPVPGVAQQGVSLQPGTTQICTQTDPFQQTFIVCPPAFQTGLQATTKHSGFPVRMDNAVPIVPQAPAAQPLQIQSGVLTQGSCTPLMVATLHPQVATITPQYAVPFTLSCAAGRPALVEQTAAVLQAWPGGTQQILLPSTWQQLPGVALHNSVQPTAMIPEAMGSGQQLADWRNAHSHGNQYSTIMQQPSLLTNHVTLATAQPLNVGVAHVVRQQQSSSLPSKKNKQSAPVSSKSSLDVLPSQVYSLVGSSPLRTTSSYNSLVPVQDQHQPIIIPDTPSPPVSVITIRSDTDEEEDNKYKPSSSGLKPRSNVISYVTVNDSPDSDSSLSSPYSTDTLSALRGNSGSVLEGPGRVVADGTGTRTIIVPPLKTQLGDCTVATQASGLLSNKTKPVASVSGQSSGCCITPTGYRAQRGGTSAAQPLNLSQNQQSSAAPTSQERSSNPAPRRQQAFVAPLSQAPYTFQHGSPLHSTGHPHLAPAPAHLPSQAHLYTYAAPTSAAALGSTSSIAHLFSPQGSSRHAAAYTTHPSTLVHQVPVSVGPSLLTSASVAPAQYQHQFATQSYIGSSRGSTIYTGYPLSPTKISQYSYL

# Set 1 — Compound: COc1ccc(-c2cnc3c(-c4ccsc4)cnn3c2)cc1; observed: enzyme activity; action: inhibitor; concentration: 0.5 µM; reference: control
target,remaining activity [%]
"LIM domain kinase 1 (LIMK1, Homo sapiens, UniProt P53667)",71.2
"AKT1 (Homo sapiens, UniProt P31749)",92.4
"PRKX (Homo sapiens, UniProt P51817)",89.5
"CDC42BPA (Homo sapiens, UniProt Q5VT25)",86.8
"FER (Homo sapiens, UniProt P16591)",81.5
"HIPK1 (Homo sapiens, UniProt Q86Z02)",99.8
"MARK3 (Homo sapiens, UniProt P27448)",88.8
"NLK (Homo sapiens, UniProt Q9UBE8)",74.5
"ITK (Homo sapiens, UniProt Q08881)",95.2
"PKN1 (Homo sapiens, UniProt Q16512)",93.1
"Cyclin-dependent kinase 3, with cyclin E (CDK3, Homo sapiens, UniProt Q00526)",84.9
"SRC (Homo sapiens, UniProt P12931)",91.7
"STK25 (Homo sapiens, UniProt O00506)",102
"FLT4 (Homo sapiens, UniProt P35916)",94.1
"PASK (Homo sapiens, UniProt Q96RG2)",79.5
"Insulin receptor (INSR, Homo sapiens, UniProt P06213)",92.5
"MATK (Homo sapiens, UniProt P42679)",99.4
"ALK (Homo sapiens, UniProt Q9UM73)",80.4
"FYN (Homo sapiens, UniProt P06241)",86.3
"TAOK3 (Homo sapiens, UniProt Q9H2K8)",96.9
"FGR (Homo sapiens, UniProt P09769)",72.3
"NEK11 (Homo sapiens, UniProt Q8NG66)",93.3

# Set 2 — concentration: 1 µM
# Compound: CN1CCN(C(=O)c2ccc(NC(=O)Nc3ccc(N(C)c4ccnc(Nc5ccc(CS(C)(=O)=O)cc5)n4)cc3)cc2)CC1
target,test,conditions,scale,remaining binding
"HIPK4 (Homo sapiens, UniProt Q8NE63)",competitive binding panel,,reference: vehicle,74%
"COQ8B (Homo sapiens, UniProt Q96D53)","competitive binding panel, measured: ADCK4",,reference: vehicle,47%
"STK32C (Homo sapiens, UniProt Q86UX6)","competitive binding panel, measured: YANK3",,reference: vehicle,100%
"CRK2 (Plasmodium falciparum, UniProt P61075)","competitive binding, scanMAX","Plasmodium falciparum PK5, 1000 nM",,95%
"MAPKAPK2 (Homo sapiens, UniProt P49137)",competitive binding panel,,reference: vehicle,100%
"MELK (Homo sapiens, UniProt Q14680)",competitive binding panel,,reference: vehicle,81%
"ULK2 (Homo sapiens, UniProt Q8IYT8)",competitive binding panel,,reference: vehicle,78%
"RPS6KA4 (Homo sapiens, UniProt O75676)",competitive binding scan,N-terminal kinase domain 1,,82%
"JAK3 (Homo sapiens, UniProt P52333)",competitive binding panel,JH1 catalytic domain,reference: vehicle,5.4%
"LRRK2 (Homo sapiens, UniProt Q5S007, G2019S)",competitive binding panel,,reference: vehicle,71%
"DYRK1B (Homo sapiens, UniProt Q9Y463)",competitive binding panel,,reference: vehicle,91%
"SIK3 (Homo sapiens, UniProt Q9Y2K2)",competitive binding,QSK,,86%
"ITK (Homo sapiens, UniProt Q08881)",competitive binding panel,,reference: vehicle,98%
"TSSK1B (Homo sapiens, UniProt Q9BXA7)",competitive binding panel,,reference: vehicle,96%
"ERBB4 (Homo sapiens, UniProt Q15303)",competitive binding panel,,reference: vehicle,77%
"EIF2AK4 (Homo sapiens, UniProt Q9P2K8, S808G)",competitive binding panel,,reference: vehicle,100%
"PIK3C2B (Homo sapiens, UniProt O00750)",competitive binding panel,,reference: vehicle,100%
"MAP2K4 (Homo sapiens, UniProt P45985)","competitive binding panel, measured: MEK4",,reference: vehicle,6%
"LATS1 (Homo sapiens, UniProt O95835)",competitive binding panel,,reference: vehicle,68%

# Set 3 — cell line: HEK293 RAS-independent; observed: cell growth; method: CellTiter-Glo
SMILES,IC50
CN1CCC[C@H]1COc1nc2c(c(N3CCN(S(C)(=O)=O)[C@@H](CC#N)C3)n1)CCN(c1cccc3cccc(Cl)c13)C2,2100 nM
CC(=O)N1CCN(c2nc(OC[C@@H]3CCCN3C)nc3c2CCN(c2cccc4cccc(Cl)c24)C3)C[C@@H]1CC#N,2300 nM
CCC(=O)N1CCN(c2nc(OC[C@@H]3CCCN3C)nc3c2CCN(c2cccc4cccc(Cl)c24)C3)C[C@@H]1CC#N,3200 nM

# Other studies, line by line
# HTR2B: 5-hydroxytryptamine receptor 2B (HTR2B, Homo sapiens, UniProt P41595)
# UniProt P41595, sequence (whole entry, looked up): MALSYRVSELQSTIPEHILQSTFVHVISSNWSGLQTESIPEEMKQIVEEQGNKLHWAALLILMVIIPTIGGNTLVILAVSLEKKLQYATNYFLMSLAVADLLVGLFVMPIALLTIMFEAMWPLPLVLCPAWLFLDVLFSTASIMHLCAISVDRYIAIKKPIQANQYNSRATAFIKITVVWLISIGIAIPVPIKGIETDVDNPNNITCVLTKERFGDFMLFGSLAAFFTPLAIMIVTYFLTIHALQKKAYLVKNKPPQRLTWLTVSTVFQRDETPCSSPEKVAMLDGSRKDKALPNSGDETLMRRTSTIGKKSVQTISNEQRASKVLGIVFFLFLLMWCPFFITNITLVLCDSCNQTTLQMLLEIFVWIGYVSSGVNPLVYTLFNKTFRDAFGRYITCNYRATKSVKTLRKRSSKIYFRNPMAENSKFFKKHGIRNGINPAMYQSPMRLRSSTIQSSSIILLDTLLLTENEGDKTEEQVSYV
SMILES,target,test,conditions,measurement,result
O=C1c2ccc(Nc3ccc(F)cc3F)cc2CCc2ccc(OC[C@H](O)CO)cc21,HTR2B,cell-free assay,10 µM,inhibition,83.1%
CN(c1ccnc(CNc2nc(Nc3ccc4c(c3)CC(=O)N4)ncc2C(F)(F)F)n1)S(C)(=O)=O,"PTK2B (Homo sapiens, UniProt Q14289)","target engagement in cells, BRET",,EC50,37 µM
Cc1c(NC(=O)c2cc(C(N)=O)nc3cc(F)ccc23)c(C(F)(F)F)nn1Cc1ccc(C(C)(C)C)cc1,HTR2B,"binding, radioligand binding",10 µM,inhibition,-8.78%
